Published values pooled from the literature.
Compare with care: the assays were run in different laboratories. Values joined by “and” are separate records of one study, mostly repeats; a detail may differ. Numbers after ± are the reported error.

`C[C@H]1O[C@@H](O[C@H]2CC[C@@]3(C)[C@@H](CC[C@]4(C)[C@@H]3C=C[C@]35OC[C@@]6(CCC(C)(C)C[C@H]63)[C@@H](O)C[C@]54C)[C@]2(C)CO)[C@H](O)[C@@H](O[C@@H]2O[C@H](CO)[C@@H](O)[C@H](O)[C@H]2O)[C@H]1O` — result for “SIRT1 to β-actin ratio”: 1.55 fold change and 1.15 fold change and 0.798 fold change (Western blot; ethanol-fed mice, liver; dose not given, -H dose; baseline: control mice).
`Cc1noc(C)c1-c1cc(C(O)(c2ccccn2)c2ccccn2)c2nc(C3CC3)[nH]c2c1` has a maximum induction of 109% (item: HEXIM1 expression; human, peripheral blood; 9 mg, day 8, 1604 study).
Under “disease control rate”, `COc1cc2cc(-c3ccc(CC(=O)Nc4cc(C(C)(C)C(F)(F)F)no4)cn3)cnc2cc1OC` is recorded as 51% (human RET-altered advanced solid tumours; 75 mg, phase I pooled, RECIST 1.1).
`C[C@H]1C[C@H]2CSC(N)=N[C@@]2(c2nc(NC(=O)c3ccc(OC(F)F)cn3)cs2)CO1` — result for “percent change from baseline”: -56.8% (item: total Aβ; healthy adults, plasma; 50 mg once daily, day 2; baseline: placebo).
With `CCCCC1(CCCC)CN(c2ccccc2)c2cc(SC)c(OCC(=O)N[C@@H](C(=O)NCC(=O)O)c3ccccc3)cc2S(=O)(=O)C1` the plasma C4 was 21.7 ng/mL (item: 7α-hydroxy-4-cholesten-3-one; human, plasma; 15 mg once daily, day 1).
For `C[C@@H](Nc1cc(F)cc(F)c1)c1cc(C(=O)N(C)C)cc2c(=O)cc(N3CCOCC3)oc12`, “pPRAS40 H-score change” read 22.2% (immunohistochemistry, item: phospho-PRAS40; human, tumor biopsy; oral, 120 mg twice daily continuous, 408 h after first dose; baseline: baseline, direction not given).
`c1ccc(-c2n[nH]cc2-c2ccnc3ccccc23)nc1` — result for “log2 fold change”: 0.868 (kinase binding, competitor, MIB/MS competition, item: SHA3; Candida albicans cell lysate; 100 nM; baseline: DMSO).
Under “overall response rate”, `Cc1cc(C)c(CNC(=O)c2cc(Cl)c3c(c2C)O[C@@](C)([C@H]2CC[C@H](N(C)C)CC2)O3)c(=O)[nH]1` is recorded as 50% (IWG criteria, CR or PR; relapsed/refractory PTCL-NOS patients; dose not given).
Under mRNA level, `CSc1ccc(C(=O)/C=C/c2cc(C)c(OC(C)(C)C(=O)O)c(C)c2)cc1` is recorded as “no effect” (RT-PCR, item: PNPLA2, LPL, Apo C-II; db/db mice, MCD diet-fed, liver; 30 mg/kg; baseline: model group).
`N#Cc1ccn2c(-c3ccncc3)c(-c3ccc(F)cc3)nc2c1` — result for “log2 fold change”: -0.527 (kinase binding, competitor, MIB/MS competition, item: IRE1; Candida albicans cell lysate; 1 µM; baseline: DMSO).
`NC(=O)c1cnc2[nH]ccc2c1N[C@@H]1[C@@H]2CC3C[C@H]1C[C@@](O)(C3)C2`: “change from baseline” -0.02% (flow cytometry, item: CD4+ effector T cells; Japanese healthy subjects, peripheral blood; oral, 30 mg twice daily, day 4).
`Cc1coc([C@H]2C[C@H]3[C@@H](CF)SC(N)=N[C@@]3(c3ccc(F)cc3F)CO2)n1` gave an Aβ42 level of 0.59 ng/g (item: Aβx-42; Mus musculus wild-type, brain; subcutaneous, 80 mg/kg, 1 h).
Under “tumour volume difference”, `C=CCn1c(=O)c2cnc(Nc3ccc(N4CCN(C)CC4)cc3)nc2n1-c1ccc2c(n1)[C@@](O)(CC)CC2` is recorded as 299 ± 12.9 mm3 (PC-9 xenograft, CB17 SCID mice; oral, 80 mg/kg, day 18, once daily x 19).
`CC#CC(=O)N[C@H]1CCCN(c2c(F)cc(C(N)=O)c3[nH]c(C)c(C)c23)C1` — result for “change from baseline in serum IgM”: -6.2% (healthy volunteers, multiple ascending dose, serum; 10 mg once daily, day 21).
`COc1ccc(-c2cncc(N[C@@H](C)c3cccc(NC(=O)c4cncc(C)c4)c3)n2)cc1OC` has a fold change of 0.57 (item: rno-miR-128-3p; rat SU5416/hypoxia model, lung; dose not given; baseline: SU5416/hypoxia vehicle).
For `Cc1cc(F)cc2c(CCC(=O)N[C@@H]3C(=O)NC[C@H]3O)c(-c3ccc(F)cc3)[nH]c12`, “urine albumin/creatinine ratio” read 84.3 µg/mg and 63.8 µg/mg and 902 µg/mg and 197 µg/mg and 74.7 µg/mg and 386 µg/mg (APOL1 G2 mice, IFNγ-induced; 30 mg/kg twice daily, day 13).
Under “pathway activation z-score”, `Cn1cc(Nc2nccc(-c3ccc4c(c3)CN(C3COC3)CC[C@H]4NC(=O)c3cn(C(C)(C)C)nn3)n2)cn1` is recorded as 3.77 (item: fMLP signaling in neutrophils; splenic B cells, mice; 30 mg/kg, IgD-activated in vivo; baseline: vehicle, direction not given).
For `CCN1CCN(Cc2ccc(Nc3ncc(F)c(-c4cc(F)c5nc6n(c5c4)[C@H](C)CCC6)n3)nc2)CC1`, “disease control rate” read 0% (human advanced solid tumours; 50 mg, phase Ia monotherapy RECIST 1.1).
Under “maximum non-toxic concentration”, `COc1cccc2c1C(=O)c1c(O)c3c(c(O)c1C2=O)C[C@@](O)(C(=O)CO)C[C@@H]3O[C@H]1C[C@H](N)[C@H](O)[C@H](C)O1` is recorded as 225 ± 18 nM (MTT; normal colonocytes, rat; 72 h).
For `Cc1n[nH]c2ccc(-c3cc(OC[C@@H](N)Cc4ccccc4)cnc3-c3ccoc3)cc12`, “log2 fold change” read 0.0369 (kinase binding, competitor, MIB/MS competition, item: TPK2; Candida albicans cell lysate; 1 µM; baseline: DMSO).
`CC[C@@H](C)[C@@H](NC(=O)[C@@H](Cc1ccc(O)cc1)NC(=O)[C@H]1CCCN1C(=O)[C@@H](CCCNC(=N)N)NC(=O)[C@H](N)Cc1c[nH]cn1)C(=O)N[C@H](C)C(=O)N[C@H](Cc1c[nH]cn1)C(=O)N[C@H](CCCNC(=N)N)C(=O)N[C@@H](C(=O)N[C@H](Cc1ccc(O)cc1)C(=O)N[C@H](CO)C(=O)N[C@H](Cc1ccccc1)C(N)=O)C(C)C`: “IFN-γ+ CD8+ T cell frequency” 3.2% and 4.07% and 4.04% and 4.72% (ex vivo flow cytometry; GL261-Luc brain tumour mice, cervical lymph node; dose not given).
`O=C1Nc2cc3[nH]nc(-c4ccncc4)c3cc2CN1Cc1ccccc1`: “complete response, best response” 0% (RECIST v1.1; human, relapsed or refractory advanced solid tumours; intravenous, 6.4 mg/kg).
`COc1nc(-c2cc(C)c(N[C@@H](C)c3cc(F)cc(F)c3)nn2)ccc1-n1cnc(C)c1` — result for “change in level”: 68% (item: Aβ38; rat Sprague-Dawley male, CSF; oral, 50 mg/kg daily for 9 days, 4 h after dose; baseline: vehicle).
`CN[C@@H]1COc2c(S(=O)(=O)NC(=O)Nc3c4c(cc5c3CCC5)CCC4)cnn2C1` has an inhibition of 99.4% (item: IL-1β; human participants, whole blood ex vivo; 150 mg single dose, 4 h, with: LPS/ATP; baseline: baseline).
For `Cc1ccc(C(=O)Nc2ccnc(S(N)(=O)=O)c2)c(N2CCCC(F)(F)CC2)n1`, the activity-dependent slowing was 85.5 ± 2.63 % baseline (Macaca mulatta, C-nociceptors; intravenous, 0.6 mg/kg bolus then 0.8 mg/kg/h, 30 min).
`CC(C)NCC(O)c1ccc(O)c(O)c1` (centres unmarked) has a sarcomere length of 1.72 µm (ventricular cardiomyocytes, C57BL/6 mouse; dose not given, 0.656 s).
`CCOc1c([C@H](C)n2nc(C)c3c(N)ncnc32)cc(Cl)c(F)c1[C@@H]1CNC(=O)C1`: “plasma protein level change” -64% (Olink proximity extension proteomics, item: CCL17; human FL or MZL patients, plasma; dose not given, week 8; baseline: baseline).
`N#Cc1ccc2c(-c3ccncc3)c(-c3ccc(F)cc3)nn2c1`: “log2 fold change” -0.3 (kinase binding, competitor, MIB/MS competition, item: ATG1; Candida albicans cell lysate; 10 µM; baseline: DMSO).
For `COc1nc(NCc2cn(-c3ccc(C(=O)Nc4ccc(F)cc4)cc3)nn2)nc(OC)n1`, “maximum non-toxic concentration” read 42 ± 0.97 nM (MTT; normal colonocytes, rat; 72 h).
Under “overall response rate”, `Cc1ccc(NC(=O)c2ccnc(C(F)(F)F)c2)cc1-c1cc(OCCO)nc(N2CCOCC2)c1` is recorded as 2.3% (MAPK-altered advanced solid tumour patients; dose not given, single-agent dose escalation).
For `COc1ncnn2ccc(-c3cnc4nc(C)n(Cc5nnc([C@@H](C)F)o5)c4c3)c12`, “overall response rate” read 42.9% (Homo sapiens, relapsed or refractory AML or MDS; dose not given, CR, CRi, mCR, MLFS or PR).
For `CC1(C)CCC2(CC1)N[C@@H](C(=O)N[C@@H]1CC[C@@H](C(N)=O)OC1)[C@H](c1ccnc(Cl)c1F)[C@]21C(=O)Nc2cc(Cl)ccc21`, the non-evaluable patients was 20% (human, solid tumours; 90 mg/day, RECIST; baseline: patients).
Under p-PI3Kα expression, `Cc1nc(N(Cc2ccccc2)c2ccc3c(c2)/C(=C/c2ccccc2)C(=O)N3Cc2ccccc2)c2ccccc2n1` (mixture of isomers) is recorded as “decreased” (immunohistochemistry; LLC, C57BL/6 mouse, syngeneic NSCLC model, tumour tissue; dose not given).
Under “change in Schiff sensitivity score”, `N=C(N)NCCC[C@H](NC(=O)[C@H](CCCNC(=N)N)NC(=O)[C@H](CCCCN)NC(=O)[C@H](CCC(N)=O)NC(=O)[C@H](CCCCN)NC(=O)[C@H](Cc1ccc(O)cc1)NC(=O)[C@@H](N)CCCCN)C(=O)N[C@@H](CO)C(=O)N[C@@H](Cc1ccc(O)cc1)C(=O)N[C@@H](CCCCN)C(=O)O` is recorded as -1.33 ± 0.52 (human, dentin hypersensitivity patients; topical to tooth, 10 µg/tooth repeated, day 36, phase 1/2a trial; direction not given).
`CCc1cc(Cl)c(OC)c(C(=O)NC[C@@H]2CCCN2CC)c1O`: “optogenetically evoked calcium signal” “inhibited” (CeA D2 receptor-positive neurons, mouse, central amygdala; i.p., 2 mg/kg).
`NCC(=O)Nc1cncc(-c2nn3c(=O)cc(N4CCNCC4)nc3s2)c1` — result for “inhibition of platelet aggregation”: 41.7% (ADP-induced platelet aggregation, light transmission aggregometry; human stable CAD patients on aspirin, platelets ex vivo; 0.05 mg/kg, 60 min post dose, with: 20 µM ADP; baseline: placebo difference).
`Cc1cc([C@H]2C[C@H]3[C@@H](CF)SC(N)=N[C@@]3(c3ccc(F)cc3F)CO2)on1` has an Aβ42 level of 0.45 ng/g (item: Aβx-42; Mus musculus wild-type, brain; subcutaneous, 30 mg/kg, 1 h).
`Cc1cc(Nc2cc3ncccc3c(N[C@@H]3C[C@H]4CC[C@@H](C3)N4CCC#N)n2)n[nH]1` — result for “T cell infiltration”: “decreased” (BALB/c mice, oxazolone colitis, colonic mucosa; oral, 30 mg/kg twice daily).
`C[C@@H]1CCC[C@H](n2cnc(-c3cc(Cl)ccc3-n3cc(Cl)nn3)cc2=O)c2cc(ccn2)-c2c(cnn2C(F)F)NC1=O` — result for “concentration for aPTT prolongation”: 140 nM (pooled normal human plasma; IC2× aPTT, Actin FS reagent).
Under “disease control rate”, `C=CC(=O)Nc1cc(Nc2nccc(Nc3cc(Cl)c(F)cc3C(C)(C)O)n2)c(OC)cc1N1CC[C@@H](N(C)C)C1` is recorded as 80% (human, EGFR exon20ins NSCLC; concentration not given, unknown subtype).
The dP/dtmax change of `CCOCc1nc(O)c(-c2nnc(Cc3ccc(Cl)cn3)o2)c(O)c1-c1c(OC)cccc1OC` is reported as 14.5 ± 1% (instrumented anaesthetised rat; intravenous infusion, 100 µg/kg/min for 15 min, 15 min; baseline: baseline).
`O=C(NC1Cc2ccccc2C1)c1c(-c2ccc3ccccc3c2)nc2occn12`: mRNA level “increased” (inducer, item: Cyp2b10; hCAR transgenic male mice, liver; intraperitoneal, 10 mg/kg, 24 h).
With `O=C(O)CNC(=O)Cc1ccccc1` the sarcomere length was 1.66 µm (ventricular cardiomyocytes, C57BL/6 mouse; dose not given, 0.264 s).
`OC(CCN1CCCCC1)(c1ccccc1)C1CC2C=CC1C2` (centres unmarked): “change in EEG Beta2-power Fz-Cz” -6.2% (resting-state EEG; healthy elderly humans; oral, 4 mg, eyes closed, LS mean; baseline: baseline).
For `Clc1ccc(N/N=C(\c2ccccc2)c2ccccn2)nc1`, “global H3K4me3 level” read “no effect” (western blot; NOD/SCID mice, tumour cells; dose not given).
The caspase-3/7 activity of `COc1cccc2c1C(=O)c1c(O)c3c(c(O)c1C2=O)C[C@@](O)(C(=O)CO)C[C@@H]3O[C@H]1C[C@H](N)[C@H](O)[C@H](C)O1` is reported as ~2 fold (mouse, HeLa xenograft, tumour lysate; intravenous, 8 mg/kg three times; baseline: saline).
`CC(C)(O)c1ccccc1CC[C@@H](SCC1(CC(=O)O)CC1)c1cccc(/C=C/c2ccc3ccc(Cl)cc3n2)c1` gave a maximal inhibition of 77% (paw oedema; mouse; intraperitoneal, 10 mg/kg, 3 h, with: leukotriene).

Some of these lines once more:
For `Clc1ccc(N/N=C(\c2ccccc2)c2ccccn2)nc1`, “global H3K4me3 level” read “no effect” (western blot; NOD/SCID mice, tumour cells; dose not given).
`CC#CC(=O)N[C@H]1CCCN(c2c(F)cc(C(N)=O)c3[nH]c(C)c(C)c23)C1` — result for “change from baseline in serum IgM”: -6.2% (healthy volunteers, multiple ascending dose, serum; 10 mg once daily, day 21).
Under “maximum non-toxic concentration”, `COc1cccc2c1C(=O)c1c(O)c3c(c(O)c1C2=O)C[C@@](O)(C(=O)CO)C[C@@H]3O[C@H]1C[C@H](N)[C@H](O)[C@H](C)O1` is recorded as 225 ± 18 nM (MTT; normal colonocytes, rat; 72 h).
